Results pooled from the literature.
Each numbered part is a random draw from the data of one study; scales do not carry over between parts.
UniProt O15111, sequence (whole entry, looked up): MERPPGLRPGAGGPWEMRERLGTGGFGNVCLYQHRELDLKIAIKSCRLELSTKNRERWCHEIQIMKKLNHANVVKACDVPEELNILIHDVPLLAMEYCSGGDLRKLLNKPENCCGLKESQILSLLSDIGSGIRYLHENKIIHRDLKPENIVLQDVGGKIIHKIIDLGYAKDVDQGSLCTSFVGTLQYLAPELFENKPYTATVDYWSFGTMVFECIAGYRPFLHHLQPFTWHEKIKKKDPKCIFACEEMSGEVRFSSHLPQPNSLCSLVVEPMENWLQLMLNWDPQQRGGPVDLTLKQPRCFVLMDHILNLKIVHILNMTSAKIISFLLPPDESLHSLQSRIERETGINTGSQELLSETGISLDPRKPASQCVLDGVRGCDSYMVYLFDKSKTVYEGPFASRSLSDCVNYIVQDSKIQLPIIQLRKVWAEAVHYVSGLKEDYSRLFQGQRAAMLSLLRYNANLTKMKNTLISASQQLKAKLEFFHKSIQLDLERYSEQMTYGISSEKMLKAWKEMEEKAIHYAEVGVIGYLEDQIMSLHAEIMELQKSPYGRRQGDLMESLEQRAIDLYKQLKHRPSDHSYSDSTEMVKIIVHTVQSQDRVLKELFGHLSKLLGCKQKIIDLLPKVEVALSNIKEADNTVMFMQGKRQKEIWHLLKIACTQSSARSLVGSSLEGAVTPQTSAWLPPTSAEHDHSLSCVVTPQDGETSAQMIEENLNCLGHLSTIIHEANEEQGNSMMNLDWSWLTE
UniProt Q9UK32, sequence (whole entry, looked up): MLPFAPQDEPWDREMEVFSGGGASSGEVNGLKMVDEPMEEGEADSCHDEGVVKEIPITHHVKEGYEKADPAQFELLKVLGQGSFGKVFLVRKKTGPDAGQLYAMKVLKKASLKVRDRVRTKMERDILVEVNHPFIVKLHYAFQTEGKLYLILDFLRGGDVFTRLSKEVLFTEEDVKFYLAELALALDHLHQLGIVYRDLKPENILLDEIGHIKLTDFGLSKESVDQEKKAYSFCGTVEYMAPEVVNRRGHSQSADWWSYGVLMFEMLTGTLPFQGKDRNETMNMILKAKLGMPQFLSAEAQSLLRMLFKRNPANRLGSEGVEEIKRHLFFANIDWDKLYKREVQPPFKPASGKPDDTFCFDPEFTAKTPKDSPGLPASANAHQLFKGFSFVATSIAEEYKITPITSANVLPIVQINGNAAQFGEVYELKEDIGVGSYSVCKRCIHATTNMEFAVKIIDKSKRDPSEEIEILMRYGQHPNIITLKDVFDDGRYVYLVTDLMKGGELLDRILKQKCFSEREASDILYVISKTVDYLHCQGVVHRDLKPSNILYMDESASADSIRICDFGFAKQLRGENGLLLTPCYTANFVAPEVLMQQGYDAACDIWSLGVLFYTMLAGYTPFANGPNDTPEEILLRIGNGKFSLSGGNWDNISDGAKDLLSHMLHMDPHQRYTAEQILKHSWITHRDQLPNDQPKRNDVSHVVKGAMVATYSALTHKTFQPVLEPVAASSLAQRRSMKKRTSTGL
UniProt Q86Y07, sequence (whole entry, looked up): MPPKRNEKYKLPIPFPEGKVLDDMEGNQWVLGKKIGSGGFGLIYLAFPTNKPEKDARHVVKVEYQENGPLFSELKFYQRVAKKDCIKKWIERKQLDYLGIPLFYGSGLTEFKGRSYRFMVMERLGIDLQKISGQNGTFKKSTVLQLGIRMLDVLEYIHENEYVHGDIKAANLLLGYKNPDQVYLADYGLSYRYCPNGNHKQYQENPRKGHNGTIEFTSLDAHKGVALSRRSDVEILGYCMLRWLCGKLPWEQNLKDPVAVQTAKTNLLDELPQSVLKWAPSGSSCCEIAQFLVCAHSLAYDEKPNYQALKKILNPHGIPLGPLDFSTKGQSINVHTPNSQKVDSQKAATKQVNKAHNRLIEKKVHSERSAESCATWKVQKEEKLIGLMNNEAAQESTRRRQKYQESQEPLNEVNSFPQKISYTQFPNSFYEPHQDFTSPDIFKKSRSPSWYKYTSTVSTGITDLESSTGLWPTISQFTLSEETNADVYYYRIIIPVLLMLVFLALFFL
UniProt Q9Y6R4, sequence (whole entry, looked up): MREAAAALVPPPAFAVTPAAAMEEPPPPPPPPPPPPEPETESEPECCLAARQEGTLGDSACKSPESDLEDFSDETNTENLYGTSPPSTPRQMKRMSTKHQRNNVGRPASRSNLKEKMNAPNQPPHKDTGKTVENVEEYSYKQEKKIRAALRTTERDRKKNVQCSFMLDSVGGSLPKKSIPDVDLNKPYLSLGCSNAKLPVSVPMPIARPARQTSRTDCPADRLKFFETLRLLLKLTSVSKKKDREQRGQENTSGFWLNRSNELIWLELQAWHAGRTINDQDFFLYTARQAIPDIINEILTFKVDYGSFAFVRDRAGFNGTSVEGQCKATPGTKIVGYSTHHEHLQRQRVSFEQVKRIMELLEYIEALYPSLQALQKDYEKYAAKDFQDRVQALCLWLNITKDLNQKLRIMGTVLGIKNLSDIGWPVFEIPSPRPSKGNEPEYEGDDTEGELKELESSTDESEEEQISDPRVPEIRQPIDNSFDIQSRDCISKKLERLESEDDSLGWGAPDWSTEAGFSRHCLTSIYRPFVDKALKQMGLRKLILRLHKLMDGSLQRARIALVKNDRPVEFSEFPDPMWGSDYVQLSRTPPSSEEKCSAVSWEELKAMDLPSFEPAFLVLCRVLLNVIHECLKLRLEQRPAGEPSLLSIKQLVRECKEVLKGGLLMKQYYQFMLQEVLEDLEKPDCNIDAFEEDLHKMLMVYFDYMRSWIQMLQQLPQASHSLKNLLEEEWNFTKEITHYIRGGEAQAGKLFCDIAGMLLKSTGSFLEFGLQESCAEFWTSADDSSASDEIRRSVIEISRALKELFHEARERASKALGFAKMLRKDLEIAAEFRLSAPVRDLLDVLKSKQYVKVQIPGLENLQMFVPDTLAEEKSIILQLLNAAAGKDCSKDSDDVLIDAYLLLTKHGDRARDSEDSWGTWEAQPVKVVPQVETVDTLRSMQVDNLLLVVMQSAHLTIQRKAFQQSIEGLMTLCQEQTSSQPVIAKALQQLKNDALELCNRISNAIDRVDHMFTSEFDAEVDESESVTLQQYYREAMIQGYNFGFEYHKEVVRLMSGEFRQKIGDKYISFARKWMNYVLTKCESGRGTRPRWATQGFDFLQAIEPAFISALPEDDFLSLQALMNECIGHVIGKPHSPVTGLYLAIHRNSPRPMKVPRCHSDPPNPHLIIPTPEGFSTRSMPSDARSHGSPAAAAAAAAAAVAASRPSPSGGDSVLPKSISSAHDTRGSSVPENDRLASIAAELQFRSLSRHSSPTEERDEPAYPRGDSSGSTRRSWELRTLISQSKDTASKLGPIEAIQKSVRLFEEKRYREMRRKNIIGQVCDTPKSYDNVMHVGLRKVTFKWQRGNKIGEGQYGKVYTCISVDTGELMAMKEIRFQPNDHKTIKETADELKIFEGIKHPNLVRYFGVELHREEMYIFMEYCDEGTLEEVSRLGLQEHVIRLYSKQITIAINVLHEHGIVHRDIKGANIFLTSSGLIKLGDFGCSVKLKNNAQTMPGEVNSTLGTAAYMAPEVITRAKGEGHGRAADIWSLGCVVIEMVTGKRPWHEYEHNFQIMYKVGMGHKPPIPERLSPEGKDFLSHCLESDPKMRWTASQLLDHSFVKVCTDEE
UniProt O14730, sequence (whole entry, looked up): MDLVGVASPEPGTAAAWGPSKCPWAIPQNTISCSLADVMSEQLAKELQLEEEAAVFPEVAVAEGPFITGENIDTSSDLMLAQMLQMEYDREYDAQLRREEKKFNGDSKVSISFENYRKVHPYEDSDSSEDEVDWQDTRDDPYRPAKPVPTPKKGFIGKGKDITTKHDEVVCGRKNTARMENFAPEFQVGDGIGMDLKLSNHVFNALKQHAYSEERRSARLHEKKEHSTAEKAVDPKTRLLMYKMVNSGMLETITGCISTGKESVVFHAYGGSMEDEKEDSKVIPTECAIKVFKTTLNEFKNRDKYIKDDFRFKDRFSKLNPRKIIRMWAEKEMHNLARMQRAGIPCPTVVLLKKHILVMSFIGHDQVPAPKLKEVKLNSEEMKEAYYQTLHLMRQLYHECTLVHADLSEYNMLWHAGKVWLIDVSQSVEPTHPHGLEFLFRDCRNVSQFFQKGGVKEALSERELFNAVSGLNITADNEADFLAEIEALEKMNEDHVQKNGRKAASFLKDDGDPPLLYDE

Study 1
Target: Eukaryotic initiation factor 4A-III (Homo sapiens, UniProt P38919)
UniProt P38919, sequence (whole entry, looked up): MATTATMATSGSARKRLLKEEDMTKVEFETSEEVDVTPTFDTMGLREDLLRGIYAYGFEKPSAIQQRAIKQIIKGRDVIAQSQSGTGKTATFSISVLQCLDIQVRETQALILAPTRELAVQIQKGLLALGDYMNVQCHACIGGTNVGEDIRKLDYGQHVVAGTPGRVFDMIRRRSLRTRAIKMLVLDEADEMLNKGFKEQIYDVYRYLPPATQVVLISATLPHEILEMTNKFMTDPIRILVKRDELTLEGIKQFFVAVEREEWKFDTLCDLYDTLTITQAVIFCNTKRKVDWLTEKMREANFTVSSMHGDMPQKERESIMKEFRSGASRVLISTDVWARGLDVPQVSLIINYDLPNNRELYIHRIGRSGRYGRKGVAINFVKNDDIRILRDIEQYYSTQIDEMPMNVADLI
Effect on: RNA clamping
Method: fluorescence polarization
Concentration: concentration not given
Setting: mean of two replicates
Together with: FAM-labelled poly r(AG)8 RNA
Measurement: fluorescence polarization change
COc1ccc([C@@]23Oc4cc(OC)cc(OC)c4[C@@]24NC(C)=N[C@@]4(O)[C@H](C(=O)N(C)C)[C@H]3c2ccccc2)cc1: 64.2 mP
COC(=O)[C@H]1[C@H](c2ccccc2)[C@@]2(c3ccc(Br)cc3)Oc3cc(OC)cc(OC)c3[C@]1(O)[C@H]2O: -0.2 mP
COC(=O)Cc1nc2c(c(=O)[nH]1)[C@@H](c1ccccc1)[C@]1(c3ccc(OC)cc3)Oc3cc(OC)cc(OC)c3[C@]21O: 20.9 mP
COC(=O)[C@@H]1[C@@H](c2ccccc2)[C@]2(c3ccc(OC)cc3)Oc3cc(OC)cc(OC)c3[C@@]23OC(c2ccc(Cl)cc2)=N[C@@]13O: 4.8 mP
COC(=O)[C@H]1[C@H](c2ccccc2)[C@]2(c3ccc(OC)cc3)Oc3cc(OC)cc(OC)c3[C@@]23OC(c2ccccc2)=N[C@@]13O: 0.4 mP
COC(=O)[C@@H]1[C@@H](c2ccccc2)[C@]2(c3ccc(OC)cc3)Oc3cc(OC)cc(OC)c3[C@@]23NC(C(C)(C)C)=N[C@@]13O: 28.8 mP
COC(=O)[C@@H]1[C@@H](c2ccccc2)[C@]2(c3ccc(OC)cc3)Oc3cc(OC)cc(OC)c3[C@@]23OC(c2ccc(F)cc2)=N[C@@]13O: 17.9 mP
COC(=O)[C@@H]1[C@@H](c2ccccc2)[C@]2(c3ccc(OC)cc3)Oc3cc(OC)cc(OC)c3[C@@]23OC(c2ccc(OC)cc2)=N[C@@]13O: 3.7 mP

Study 2
Target: Calcium/calmodulin-dependent protein kinase type II subunit alpha (CAMK2A, Homo sapiens, UniProt Q9UQM7)
UniProt Q9UQM7, sequence (whole entry, looked up): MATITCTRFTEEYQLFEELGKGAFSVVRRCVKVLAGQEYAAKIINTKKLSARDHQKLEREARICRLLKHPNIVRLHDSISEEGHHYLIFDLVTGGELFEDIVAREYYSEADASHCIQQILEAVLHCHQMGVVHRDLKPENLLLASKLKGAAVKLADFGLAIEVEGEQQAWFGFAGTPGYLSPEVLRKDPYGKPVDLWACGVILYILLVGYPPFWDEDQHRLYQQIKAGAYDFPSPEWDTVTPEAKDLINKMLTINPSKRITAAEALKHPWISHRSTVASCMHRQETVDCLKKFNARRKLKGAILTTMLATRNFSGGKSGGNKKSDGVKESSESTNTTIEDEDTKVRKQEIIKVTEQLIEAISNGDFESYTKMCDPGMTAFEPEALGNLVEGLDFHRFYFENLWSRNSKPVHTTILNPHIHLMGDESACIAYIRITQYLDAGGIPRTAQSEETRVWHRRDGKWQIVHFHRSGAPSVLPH
Effect on: enzyme activity
Action: inhibitor
Concentration: 10 µM
Measurement: inhibition
Cc1cccc(Cc2c[nH]cn2)c1C: -4%
C=C[C@@H]1C2=CCOC(=O)C2=CO[C@H]1O[C@@H]1O[C@H](CO)[C@@H](O)[C@H](O)[C@H]1O: 27%
CCCCCOc1ccc(-c2cc(-c3ccc(C(=O)N[C@H]4C[C@@H](O)[C@@H](O)NC(=O)[C@@H]5[C@@H](O)[C@@H](C)CN5C(=O)[C@H]([C@H](O)CC(N)=O)NC(=O)[C@H]([C@H](O)[C@@H](O)c5ccc(O)c(OS(=O)(=O)O)c5)NC(=O)[C@@H]5C[C@@H](O)CN5C(=O)[C@H]([C@@H](C)O)NC4=O)cc3)no2)cc1: -1%
Cc1c([C@H](C)[C@@H]2NC[C@@H](C)C[C@H]2O)ccc2c1C[C@H]1[C@H]2CC=C2C[C@@H](O[C@@H]3O[C@H](CO)[C@@H](O)[C@H](O)[C@H]3O)CC[C@@]21C: 42%
CCN1C[C@]2(COC)[C@H](O)C[C@H](OC)[C@@]34[C@@H]5C[C@@]6(O)[C@H](OC(=O)c7ccccc7)[C@@H]5[C@@](O)([C@@H]([C@H](OC)[C@H]23)[C@@H]14)[C@@H](O)[C@@H]6OC: -14%
C/C=C1\C[C@@H](C)[C@](O)(CO)C(=O)OCC2=CCN3CC[C@@H](OC1=O)[C@@H]23: -36%
COC(=O)[C@]1(C)CC[C@]2(C)CC[C@]3(C)C4=CC=C5C(=CC(=O)C(O)=C5C)[C@]4(C)CC[C@@]3(C)[C@@H]2C1: -19%
COc1cc2c(cc1O)C[C@@H]1NCCc3cc(O)c(OC)c-2c31: -9%
NC(=O)CN1CCCC1=O: -8%

Study 3
Structure (SMILES): COc1ccc2c(c[n+](C)c3c4cc5c(cc4ccc23)OCO5)c1OC
Effect on: enzyme activity
Action: inhibitor
Concentration: 0.5 µM
Baseline: control
Measurement: remaining activity
ZAP70 (Homo sapiens, UniProt P43403): 101%
Cyclin-dependent kinase 6, with cyclin D1 (CDK6, Homo sapiens, UniProt Q00534): 103%
PDGFRA (Homo sapiens, UniProt P16234): 101%
PTK2 (Homo sapiens, UniProt Q05397): 102%
CHUK (Homo sapiens, UniProt O15111): 97.5%
PTK6 (Homo sapiens, UniProt Q13882): 94.4%
TTK (Homo sapiens, UniProt P33981): 101%
PIM3 (Homo sapiens, UniProt Q86V86): 99.6%
CAMK2A (Homo sapiens, UniProt Q9UQM7): 99.5%

Study 4
SMILES: Cn1cncc1[C@](O)(COc1ccc(C#N)cc1-c1ccc(OC(F)(F)F)cc1)c1ccc(C#N)cc1
Effect on: cell-free assay
Method: competition with immobilised ligand
Concentration: 1 µM
Measurement: remaining binding
VRK2 (Homo sapiens, UniProt Q86Y07): 70%
STK10 (Homo sapiens, UniProt O94804): 100%
MINK1 (Homo sapiens, UniProt Q8N4C8): 94%
MAP2K3 (Homo sapiens, UniProt P46734): 78%
MAP3K4 (Homo sapiens, UniProt Q9Y6R4): 90%
EGFR (Homo sapiens, UniProt P00533): 80%
MAPK15 (Homo sapiens, UniProt Q8TD08): 58%
RIOK2 (Homo sapiens, UniProt Q9BVS4): 83%
Ribosomal protein S6 kinase alpha-6, C-terminal kinase domain (RPS6KA6, Homo sapiens, UniProt Q9UK32): 93%
CHUK (Homo sapiens, UniProt O15111): 86%
DSTYK (Homo sapiens, UniProt Q6XUX3): 90%
STK32C (Homo sapiens, UniProt Q86UX6): 84%
PIK3C3 (Homo sapiens, UniProt Q8NEB9): 91%
EGFR (Homo sapiens, UniProt P00533, T790M): 100%
RIOK3 (Homo sapiens, UniProt O14730): 95%
CSNK1A1L (Homo sapiens, UniProt Q8N752): 74%
BTK (Homo sapiens, UniProt Q06187): 92%
RIPK4 (Homo sapiens, UniProt P57078): 100%

A few entries again (study 4):
BTK (Homo sapiens, UniProt Q06187): 92%
PIK3C3 (Homo sapiens, UniProt Q8NEB9): 91%
STK32C (Homo sapiens, UniProt Q86UX6): 84%
RIOK2 (Homo sapiens, UniProt Q9BVS4): 83%
